Assay results gathered from unrelated publications.
Parts stem from different laboratories: compare values within a part only. Positions count from the first letter of the parent shown.

Sample 1
Target: Interferon regulatory factor 1, DNA-binding domain (IRF1, Homo sapiens, UniProt P10914, residues 1-114)
Technique: protein-binding microarray
Molecule type: hairpin DNA
Matrix: in vitro
Tested at: not given
Notes: whole hairpin DNA, median over replicate spots
Reference: not given
Reading: higher = stronger binding
Residues (chain): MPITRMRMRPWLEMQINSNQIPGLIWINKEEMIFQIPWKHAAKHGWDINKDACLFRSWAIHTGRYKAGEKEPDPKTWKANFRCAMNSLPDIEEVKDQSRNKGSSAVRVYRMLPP
| Strand | median fluorescence [a.u.] |
| --- | --- |
| GAGGCCCGAAAGCCGAACGCCTCCTGGCGTTCGGCTTTCGGGCCTCACAC (5mC at 14 32) | 515 |
| GAGGCCCCGAAGTGAAACGCCTCCTGGCGTTTCACTTCGGGGCCTCACAC (5mC at 8) | 624 |
| GAGGCCCGAAAGTGGAACGCCTCCTGGCGTTCCACTTTCGGGCCTCACAC | 569 |
| GAGGCCCGAAAGCGAAACGCCTCCTGGCGTTTCGCTTTCGGGCCTCACAC (5mC at 13) | 1070 |
| GAGGCCCGAAAGCGCAACGCCTCCTGGCGTTGCGCTTTCGGGCCTCACAC | 515 |
| GAGGCCCGAAACTGAAACGCCTCCTGGCGTTTCAGTTTCGGGCCTCACAC (5mC at 12) | 1190 |
| GAGGCCAGAAAGCGAAACGCCTCCTGGCGTTTCGCTTTCTGGCCTCACAC | 1130 |
| GAGGCCCGAAAGCGAAACGCCTCCTGGCGTTTCGCTTTCGGGCCTCACAC (5mC at 39) | 1380 |

Sample 2
Target: RNA binding protein fox-1 homolog 2, RRM domain, GST-SBP tag (RBFOX2, Homo sapiens, UniProt O43251-10, residues 100-194)
Technique: RNA Bind-n-Seq
Molecule type: RNA
Matrix: in vitro
Tested at: 365 nM
Notes: natural RNA segment, single round, ends assumed
Reference: no-protein control
Reading: higher = stronger binding
Shared flanks, not repeated: GGGAGUUCUACAGUCCGACGAUC … UGGAAUUCUCGGGUGCCAA
| Strand | RBNS enrichment (R) |
| --- | --- |
| GUCUGGUACUAGAUUUGCUCCUGUCCCACCCCGCAGUCCCCUGAGGAGGGCGAUGUGCGCCCUCUUUCACUUUUUUUCUUCUAGGUCUCCAGGUCCCGGAGGGGAUUUGU | 0.427 |
| UAAUUGGGAUUAUUUUUUAAAAGAGGUCUUUCUCCCCGAAAUACAAGUUUUAGAAAAUCUUAGAAGAGGGGUGGGUGCAUGUCUUAAUGCUGGGAAGCGGCAACUUUGGG | 2.8 |
| CUGUAUGUUGGAUGACUUUAAUGCUACAUUUUAAAAAAAGAAAAUAAAGUAAUAAUAUAACUCAAAAUGGUUUUUGUGGUUUCUAAAUCUUUGAAAGCAGUGGCAUCAUG | 0.728 |
| UGGGUUUUUGCGAGUGCUUUGUUUACUAAGGACUUUGGGGAGGAACCAUGCUAAGCCAUGACCAGUGAGGAGAAGCAACAGAGCCUGUCUGUCCCCAUGAGCGGAGUCUG | 0.763 |
| GUGCGUCUCGGGUGACCCUUGCUGUCUUUUCUCUACACCCAUGGAUUCUCUGAAAAUACUUUGCAGUUCCUUGUGUCUUAAAAAAACACAAAAACAAAAACCAGAACUAG | 0.42 |
| AGUAUUUGAAGUCUGUUCAACUUAGUUUUACGCUAGUGUUCUGACAUAUUUUAAUUGCAUAUAACUGUAUAAUAGUCCGUGUUGUUUUCUUGCAUUGACAUGUUUCCUUU | 0.692 |
| UCCAUUAUCUAUAUAGUCCUGUCUUGUCUAUUGUAUAUAUAAUCUAUAUGAUUAAAGAAAAUAUGCAUAAUCAGACAAGCUUGAAUAUUGUUUUUGCACCAGACGAACAG | 0.388 |
| UGUUAGAAUCUGCUCAUGUGUGUGUCACCAUGCCAAGCCAUGCCAGCCACAGACUGAGGCUUCCGGGUGAGGAACACCCUGGGGCUACUAUGUUUGUAGGUCUCAUGUGC | 0.372 |

Sample 3
Target: Ras GTPase-activating protein-binding protein 1, full length (G3BP1, Homo sapiens, UniProt Q13283)
Chain of UniProt Q13283 (whole entry, looked up): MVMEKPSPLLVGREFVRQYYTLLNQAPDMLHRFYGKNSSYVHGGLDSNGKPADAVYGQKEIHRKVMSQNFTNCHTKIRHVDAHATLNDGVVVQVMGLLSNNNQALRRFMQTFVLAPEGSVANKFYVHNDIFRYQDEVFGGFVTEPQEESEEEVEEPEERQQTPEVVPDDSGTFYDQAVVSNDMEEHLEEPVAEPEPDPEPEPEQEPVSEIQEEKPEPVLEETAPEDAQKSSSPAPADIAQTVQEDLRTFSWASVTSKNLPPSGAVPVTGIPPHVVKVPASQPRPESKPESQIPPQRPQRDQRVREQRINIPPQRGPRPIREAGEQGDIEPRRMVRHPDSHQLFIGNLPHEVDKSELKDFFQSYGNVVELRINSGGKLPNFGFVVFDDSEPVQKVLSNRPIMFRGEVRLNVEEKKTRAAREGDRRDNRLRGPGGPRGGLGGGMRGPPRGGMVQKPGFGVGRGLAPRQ
Technique: RNA Bind-n-Seq
Molecule type: RNA
Matrix: in vitro
Tested at: 200 nM
Notes: whole 134-nt RNA, ends assumed
With: 150 mM KCl
Reference: input library
Reading: higher = stronger binding
Shared flanks, not repeated: GGGAGUUCUACAGUCCGACGAUC … UGGAAUUCUCGGGUGUCAAGG
| Strand | log2 enrichment |
| --- | --- |
| AGUCCUGUGCUACACAUCGUAUGUACCGAAUCGGUUUUUUUGGUUUGGUUUUUUUGGAAAGUAUUAUGUUACGCCGUUCGGAUCUGCACU | -1.29 |
| CACAGACAACACGCACCCGCACAGACACAGAGGGAAGGGGUUGGGAUGGGGACAGGGUGCACAGCAGGGCGGGGUAGGACCCCAGCCCCU | 1.92 |
| CAAGUCCUGUGCUACACAUCGUAUGUACCGAAUCGGAAAAAAAGGAAAAAGGUGGAAAGUAUUAUGUUACGCCGUUCGGAUCUGCACUUC | -1.09 |
| AAGUCCUGUGCUACACAUCGUAUGUACCGAAUCGGAAAAAGGAAAAAAAGGAAAGGAAAGUAUUAUGUUACGCCGUUCGGAUCUGCACUU | -1.33 |
| CCUCAAGUCCUGUGCUACACAUCGUAUGUACCGAAUCGGGAGGGAGGGAGGGGAAAGUAUUAUGUUACGCCGUUCGGAUCUGCACUUCCA | 1.2 |
| UUCCUCAAGUCCUGUGCUACACAUCGUAUGUACCGAAUCGGUGGUGGUGGAAAGUAUUAUGUUACGCCGUUCGGAUCUGCACUUCCAGCA | -0.514 |
| ACCAUGCAGGUGGGCAUCUUUGGGAAGUGGGGCAAGGGGGGGAUAGGGAGGGGGGUAACACUUGGGGAACAGGUGGUCCCAGGUCGUUUC | 1.26 |
| UGUGCUACACAUCGUAUGUACCGAAUCGGGGAAAAAAAGGGGAAAAAAAGGGAAAAAAAGGGAAAGUAUUAUGUUACGCCGUUCGGAUCU | -0.549 |

Single results of other studies
Starting sequence: viral docking peptide; TSVRRALFTGGSD
| Change | target | test | system | conditions | how to read | endpoint | result |
| --- | --- | --- | --- | --- | --- | --- | --- |
| TSVRRALQTGGSD [F8Q] | CCNB1, cyclin fold, Cln2 fusion (human) | yeast growth competition, sequencing | yeast | strong parent motif | reference: not given, higher = stronger binding | normalised enrichment score | 0.41 |

Repeated from above (sample 1):
| Strand | median fluorescence [a.u.] |
| --- | --- |
| GAGGCCCGAAAGCCGAACGCCTCCTGGCGTTCGGCTTTCGGGCCTCACAC (5mC at 14 32) | 515 |
